{"data": "Measured values collected from several papers", "target": "Tyrosine-protein kinase TXK (TXK, Homo sapiens, UniProt P42681)", "note": "Compare with care: the assays were run in different laboratories."}
{"SMILES": "Cc1cnc2nc1Nc1cccc(c1)COC/C=C/COCc1cc(ccc1OCCN1CCOCC1)N2", "assay": "binding, competition with immobilised ligand", "setting": "0.1 µM", "quantity": "remaining binding", "result": "53%"}
{"SMILES": "CN1CCN(Cc2ccc(-c3ccc(CO[C@H]4CCC[C@@H]4NC(=O)c4cc(-c5cnn(C)c5)cnc4N)cc3)cc2)CC1", "assay": "enzyme activity, inhibitor", "setting": "0.1 µM", "quantity": "inhibition", "result": "3%"}
{"SMILES": "COc1cc(Nc2nccc(-c3cnn4nc(OC)ccc34)n2)cc(C(F)(F)F)c1", "assay": "binding, competition with immobilised ligand", "setting": "1 µM", "quantity": "remaining binding", "result": "100%"}
{"SMILES": "C=CC(=O)Nc1cccc(-c2cnc3[nH]cc(C(=O)NC(C)(C)C)c3n2)c1", "assay": "enzyme activity, inhibitor", "setting": "0.1 µM", "quantity": "inhibition", "result": "56%"}
{"SMILES": "CC(C)=CC1OC(C)(C)C2C=C3C(=O)C(Cl)=CC(O)C3C3C(O)C4OC4C(=O)C132 (stereo not drawn)", "assay": "cell-free assay, competition with immobilised ligand", "setting": "10 µM", "quantity": "remaining binding", "result": "92%"}
{"SMILES": "COc1c(Cl)cccc1Nc1c(-c2ccncc2C#C[C@@]2(C)CCCN2C(=O)/C=C/CN(C)C)[nH]c2c1C(=O)NCC2", "assay": "binding, competition with immobilised ligand", "setting": "3 µM", "quantity": "remaining binding", "result": "71%"}
{"SMILES": "Nc1ncc(-c2cc(-c3cnn(CC(F)(F)F)c3)ncc2F)nc1C(=O)NC1CNCC(F)C1 (stereo not drawn)", "assay": "enzyme activity", "setting": "1 µM", "scale": "baseline: DMSO control", "quantity": "remaining activity", "result": "97.6%"}
{"SMILES": "Cc1cccc(O[C@H]2CCC[C@@H](C(C)CNCc3ccncc3)C2)c1 (relative stereo)", "assay": "enzyme activity, inhibitor", "setting": "1 µM", "quantity": "inhibition", "result": "7%"}
{"SMILES": "CCN1CCN(Cc2ccc(NC(=O)c3ccc(C)c(NC(=O)c4cncc(-c5cnn(C)c5)c4)c3)cc2C(F)(F)F)CC1", "assay": "binding, competition with immobilised ligand", "setting": "1 µM", "quantity": "remaining binding", "result": "1.9%"}
{"SMILES": "Cc1ccc(C(=O)Nc2ccc(CN3CCN(C)CC3)c(C(F)(F)F)c2)cc1C#Cc1cnc2cccnn12", "assay": "target engagement, NanoBRET", "test system": "human cells", "quantity": "Hill slope", "result": 1.22}
{"SMILES": "CNC(=O)C[C@H](Cc1ccc(C#N)cc1)NC(=O)c1cc(-c2ccc(CN[C@H](C)c3ccc(C)cc3)o2)ccc1Cl", "assay": "enzyme activity, inhibitor", "setting": "1 µM", "quantity": "activity vs control", "result": "96%"}
{"SMILES": "O=C(Nc1ccc(Oc2ncnc3[nH]cc(-c4ccccc4)c23)c(F)c1)c1c2n(n(-c3cc(F)ccc3F)c1=O)CCCC2", "assay": "enzyme activity, inhibitor", "setting": "0.5 µM", "quantity": "inhibition", "result": "6%"}
{"SMILES": "O=C=[N][Ru-4]123([n]4c5ccc(O)cc5c5c6c(c7cc(F)c[n+]1c7c54)C(=O)NC6=O)[S+]1CC[S+]2CC[S+]3CC1 (stereo not drawn)", "assay": "enzyme activity", "setting": "100 nM, human enzyme, with: 10 µM ATP", "scale": "baseline: untreated", "quantity": "remaining activity", "result": "99%"}
{"SMILES": "Nc1ncc2c(n1)-c1c([nH]c3ccc(C4=CCOCC4)cc13)CCC2", "assay": "binding, competition with immobilised ligand", "setting": "1 µM", "quantity": "remaining binding", "result": "100%"}
{"SMILES": "NC(=O)C[C@H]1CCc2sc3ncnc(O[C@H]4CC[C@H](N5CCOCC5)CC4)c3c21", "assay": "enzyme activity, inhibitor", "setting": "10 µM", "quantity": "inhibition", "result": "27%"}
{"note": "A few entries again:"}
{"SMILES": "CN1CCN(Cc2ccc(-c3ccc(CO[C@H]4CCC[C@@H]4NC(=O)c4cc(-c5cnn(C)c5)cnc4N)cc3)cc2)CC1", "assay": "enzyme activity, inhibitor", "setting": "0.1 µM", "quantity": "inhibition", "result": "3%"}
